Assay results of several laboratories.
Each line is one published result; not all experiments were run side by side. Numbers after ± are the reported error.

| SMILES | assay | test system | setting | scale | endpoint | value |
| --- | --- | --- | --- | --- | --- | --- |
| N=C(N)NCCC[C@H](NC(=O)[C@H](CCCCN)NC(=O)[C@H](CCC(N)=O)NC(=O)CCOCCOCCOCCNC(=O)CN1CCN(CC(=O)O)CCN(CC(=O)O)CCN(CC(=O)O)CC1)C(=O)N[C@@H](CCCCN)C(=O)N[C@@H](CCCNC(=N)N)C(=O)N[C@@H](CCCCN)C(=O)N[C@@H](CCCCN)C(=O)N[C@@H](CO)C(=O)N[C@@H](CCCNC(=N)N)C(=O)N[C@@H](Cc1ccc(O)cc1)C(=O)N[C@@H](CCCCN)C(=O)N[C@@H](CO)C(=O)O [copper-64 labelled] |  | C57BL/6 Jms mouse, male, B16-F10 melanoma, tumour and blood | intravenous, 60 min | reference: tumour over blood | tumour-to-blood ratio | 5.11 ± 1.02 |
| CCCC[C@H](NC(=O)CCCCCCCNC(=O)c1ccc(NN)nc1)C(=O)N[C@H]1CC(=O)NCCCC[C@@H](C(N)=O)NC(=O)[C@H](Cc2c[nH]c3ccccc23)NC(=O)[C@H](CCCNC(=N)N)NC(=O)[C@@H](Cc2ccccc2)NC(=O)[C@H](Cc2c[nH]cn2)NC1=O [technetium-99m labelled] |  | C57 mouse, B16/F1 melanoma, urine | intravenous, 0.037 MBq, 24 h |  | tissue uptake | 96.8 ± 1.17 %ID |
| N=C(N)NCCC[C@@H]1NC(=O)[C@H](CCCCNC(=O)CNC(=O)CNC(=O)CNC(=O)CC[C@H](NC(=O)CCOCCOCCOCCOCCNC(=O)CC[C@H](NC(=O)CN2CCN(CC(=O)O)CCN(CC(=O)O)CCN(CC(=O)O)CC2)C(=O)NCCOCCOCCOCCOCCC(=O)N[C@@H](CCC(=O)NCC(=O)NCC(=O)NCC(=O)NCCCC[C@@H]2NC(=O)[C@@H](Cc3ccccc3)NC(=O)[C@H](CC(=O)O)NC(=O)CNC(=O)[C@H](CCCNC(=N)N)NC2=O)C(=O)NCC(=O)NCC(=O)NCC(=O)NCCCC[C@@H]2NC(=O)[C@@H](Cc3ccccc3)NC(=O)[C@H](CC(=O)O)NC(=O)CNC(=O)[C@H](CCCNC(=N)N)NC2=O)C(=O)NCC(=O)NCC(=O)NCC(=O)NCCCC[C@@H]2NC(=O)[C@@H](Cc3ccccc3)NC(=O)[C@H](CC(=O)O)NC(=O)CNC(=O)[C@H](CCCNC(=N)N)NC2=O)NC(=O)[C@@H](Cc2ccccc2)NC(=O)[C@H](CC(=O)O)NC(=O)CNC1=O [indium-111 labelled] |  | athymic nude mice, female, U-87 MG glioma xenograft, tumour and kidney | intravenous, 1 h | reference: tumour over kidney | tumour to tissue ratio | 1.84 ± 0.26 |
| CCCC[C@H](NC(=O)CNC(=O)CNC(=O)c1ccc(NN)nc1)C(=O)N[C@H]1CC(=O)NCCCC[C@@H](C(N)=O)NC(=O)[C@H](Cc2c[nH]c3ccccc23)NC(=O)[C@H](CCCNC(=N)N)NC(=O)[C@@H](Cc2ccccc2)NC(=O)[C@H](Cc2c[nH]cn2)NC1=O [technetium-99m labelled] |  | C57 mouse, B16/F1 melanoma-bearing | intravenous, 2 h | reference: tumour over lung | tissue uptake ratio | 34.5 |
| N=C(N)NCCC[C@@H]1NC(=O)[C@H](CCCCNC(=O)CCOCCOCCOCCOCCNC(=O)CN2CCN(CC(=O)O)CCN(CC(=O)O)CCN(CC(=O)O)CC2)NC(=O)[C@@H](Cc2ccccc2)NC(=O)[C@H](CC(=O)O)NC(=O)CNC1=O [indium-111 labelled] |  | athymic nude mice, female, U-87 MG glioma xenograft, tumour and lungs | intravenous, 0.5 h | reference: tumour over lungs | tumour to tissue ratio | 0.83 ± 0.14 |
| CSCC[C@H](NC(=O)[C@H](CC(C)C)NC(=O)CNC(=O)[C@H](Cc1ccccc1)NC(=O)[C@H](Cc1ccccc1)NC(=O)[C@H](CCC(N)=O)NC(=O)[C@H](CCC(N)=O)NC(=O)[C@@H]1CCCN1C(=O)[C@H](CCCCNC(=O)c1ccc(-c2c3ccc(=[N+](C)C)cc-3oc3cc(N(C)C)ccc23)c(C(=O)[O-])c1)NC(=O)[C@@H]1CCCN1C(=O)[C@@H](N)CCCNC(=N)N)C(N)=O |  | PBS | 10 nM, pH 7.4 |  | excitation maximum | 560 nm |
| N=C(N)NCCC[C@@H]1NC(=O)[C@H](CCCCNC(=O)CC[C@H](NC(=O)CCOCCOCCOCCOCCNC(=O)CC[C@H](NC(=O)CN2CCN(CC(=O)O)CCN(CC(=O)O)CCN(CC(=O)O)CC2)C(=O)NCCOCCOCCOCCOCCC(=O)N[C@@H](CCC(=O)NCCCC[C@@H]2NC(=O)[C@@H](Cc3ccccc3)NC(=O)[C@H](CC(=O)O)NC(=O)CNC(=O)[C@H](CCCNC(=N)N)NC2=O)C(=O)NCCCC[C@@H]2NC(=O)[C@@H](Cc3ccccc3)NC(=O)[C@H](CC(=O)O)NC(=O)CNC(=O)[C@H](CCCNC(=N)N)NC2=O)C(=O)NCCCC[C@@H]2NC(=O)[C@@H](Cc3ccccc3)NC(=O)[C@H](CC(=O)O)NC(=O)CNC(=O)[C@H](CCCNC(=N)N)NC2=O)NC(=O)[C@@H](Cc2ccccc2)NC(=O)[C@H](CC(=O)O)NC(=O)CNC1=O [indium-111 labelled] |  | female athymic nude mice, heart | intravenous, 3 µCi, 1 h, U-87 MG glioma xenograft |  | tissue uptake | 0.86 ± 0.22 %ID/g |
| C[C@@H](O)[C@H](NC(=O)[C@@H]1CSSC[C@H](NC(=O)[C@@H](Cc2ccccc2)NC(=O)CN2CCCN3CCN(CCCN(CP(=O)(O)O)CC3)CC2)C(=O)N[C@@H](Cc2ccc(O)cc2)C(=O)N[C@H](Cc2c[nH]c3ccccc23)C(=O)N[C@@H](CCCCN)C(=O)N[C@@H]([C@@H](C)O)C(=O)N1)C(=O)O [copper-64 labelled] |  | Lewis rat, male, tumour-bearing, tumor | injection, 4 h, together with: Y3-TATE 200 µg co-injected |  | tissue uptake | 0.7 ± 0.09 %ID/g |
| CSCC[C@H](NC(=O)[C@H](CC(C)C)NC(=O)[C@H](Cc1c[nH]cn1)NC(=O)CNC(=O)[C@@H](NC(=O)[C@H](C)NC(=O)[C@H](Cc1c[nH]c2ccccc12)NC(=O)[C@H](CCC(N)=O)NC(=O)CCCCNC(=O)CSCCSCCP(CO)CO)C(C)C)C(N)=O [technetium-99m labelled] |  | CF-1 mouse, female, faeces | intravenous, dose not given, 24 h |  | excreted dose | 52.8% |
| N=C(N)NCCC[C@@H]1NC(=O)[C@H](CC(=O)NC23CNCCNCC(N)(CNCCNC2)CNCCNC3)NC(=O)[C@@H](Cc2ccccc2)NC(=O)[C@H](CC(=O)O)NC(=O)CNC1=O [copper-64 labelled] |  | Nu/Nu mouse, male, tumour-bearing, muscle | intravenous, 10 µCi, 4 h |  | tissue uptake | 0.13 ± 0.04 %ID/g |
| CSCC[C@H](NC(=O)[C@H](CC(C)C)NC(=O)[C@H](Cc1c[nH]cn1)NC(=O)CNC(=O)[C@@H](NC(=O)[C@H](C)NC(=O)[C@H](Cc1c[nH]c2ccccc12)NC(=O)[C@H](CCC(N)=O)NC(=O)CCCCCNC(=O)CNC(=O)CNC(=O)CNC(=O)CSC(C)=O)C(C)C)C(N)=O [technetium-99m labelled] |  | Swiss mouse, heart | intravenous, 18.5 MBq, 240 min |  | tissue uptake | 0.04 ± 0.02 %ID/g |
| CC(C)C[C@H](NC(=O)C[C@H](O)[C@H](CC(C)C)NC(=O)[C@H](Cc1c[nH]cn1)NC(=O)CNC(=O)[C@@H](NC(=O)[C@H](C)NC(=O)[C@H](Cc1c[nH]c2ccccc12)NC(=O)[C@H](CCC(N)=O)NC(=O)[C@@H](Cc1ccccc1)NC(=O)c1ccc(NC(=O)CNC(=O)CCC(C(=O)O)N2CCN(CC(=O)O)CCN(CC(=O)O)CC2)cc1)C(C)C)C(N)=O (stereo partly drawn) [fluorine-18 labelled] | PET imaging | mouse, PC-3 xenograft | intravenous, 0.5 h, blocking, together with: AMBA 10 mg/kg |  | tumour uptake | 2.5 ± 0.36 %ID/g |

Excerpt of the above:
| SMILES | assay | test system | setting | scale | endpoint | value |
| --- | --- | --- | --- | --- | --- | --- |
| N=C(N)NCCC[C@@H]1NC(=O)[C@H](CCCCNC(=O)CNC(=O)CNC(=O)CNC(=O)CC[C@H](NC(=O)CCOCCOCCOCCOCCNC(=O)CC[C@H](NC(=O)CN2CCN(CC(=O)O)CCN(CC(=O)O)CCN(CC(=O)O)CC2)C(=O)NCCOCCOCCOCCOCCC(=O)N[C@@H](CCC(=O)NCC(=O)NCC(=O)NCC(=O)NCCCC[C@@H]2NC(=O)[C@@H](Cc3ccccc3)NC(=O)[C@H](CC(=O)O)NC(=O)CNC(=O)[C@H](CCCNC(=N)N)NC2=O)C(=O)NCC(=O)NCC(=O)NCC(=O)NCCCC[C@@H]2NC(=O)[C@@H](Cc3ccccc3)NC(=O)[C@H](CC(=O)O)NC(=O)CNC(=O)[C@H](CCCNC(=N)N)NC2=O)C(=O)NCC(=O)NCC(=O)NCC(=O)NCCCC[C@@H]2NC(=O)[C@@H](Cc3ccccc3)NC(=O)[C@H](CC(=O)O)NC(=O)CNC(=O)[C@H](CCCNC(=N)N)NC2=O)NC(=O)[C@@H](Cc2ccccc2)NC(=O)[C@H](CC(=O)O)NC(=O)CNC1=O [indium-111 labelled] |  | athymic nude mice, female, U-87 MG glioma xenograft, tumour and kidney | intravenous, 1 h | reference: tumour over kidney | tumour to tissue ratio | 1.84 ± 0.26 |
| CCCC[C@H](NC(=O)CNC(=O)CNC(=O)c1ccc(NN)nc1)C(=O)N[C@H]1CC(=O)NCCCC[C@@H](C(N)=O)NC(=O)[C@H](Cc2c[nH]c3ccccc23)NC(=O)[C@H](CCCNC(=N)N)NC(=O)[C@@H](Cc2ccccc2)NC(=O)[C@H](Cc2c[nH]cn2)NC1=O [technetium-99m labelled] |  | C57 mouse, B16/F1 melanoma-bearing | intravenous, 2 h | reference: tumour over lung | tissue uptake ratio | 34.5 |
